Results of several laboratories.
Compare with care: the assays were run in different laboratories.

Cn1cncc1[C@@](N)(c1ccc(Cl)cc1)c1ccc2c(c1)c(-c1cccc(Cl)c1)cc(=O)n2C: “time to steady state” no more than 3 days (cancer patients, plasma; 30 to 300 mg once or twice daily).
For C=CC(=O)NC1CCN(c2ncc3ncnc(Nc4ccc(Oc5ccc6c(c5)ncn6C)c(C)c4)c3n2)CC1, “time to urinary excretion plateau” read roughly 48 h (healthy male volunteers, urine; oral, 60 mg).
For C[C@@H](NC(=O)N1C(=O)[C@H](Cc2ccnc(N)c2)[C@H]1C(=O)O)C1CCCCC1, “time to steady state” read 0.0425 days (UPLC-MS/MS; healthy adult Chinese volunteers, plasma; continuous intravenous infusion, 0.6 mg/kg/h, day 1 of 5-day infusion, median).
For CC1(C)CCC(c2ccc(Cl)cc2)=C(CN2CCN(c3ccc(C(=O)NS(=O)(=O)c4ccc(N[C@H](CCN5CCOCC5)CSc5ccccc5)c(S(=O)(=O)C(F)(F)F)c4)cc3)CC2)C1, “time to solubility equilibrium” read roughly 72 h (pH 6.5, 37 °C).
For CCN1CCN(Cc2ccc(Nc3ncc(F)c(-c4cc(F)c5nc6n(c5c4)[C@H](C)CCC6)n3)nc2)CC1, “time to steady state” read 7 days (Phase Ia, non-compartmental; patients with advanced solid tumours, plasma; multiple dosing).
For Cc1cc(C#N)cc(C)c1Oc1nc(Nc2ccc(C#N)cc2)nc(N)c1Br, “time to precipitation plateau” read roughly 30 min (FaSSIF; concentration not given, no polymer).
CN[C@H](CC(C)C)C(=O)N[C@H]1C(=O)N[C@@H](CC(N)=O)C(=O)N[C@H]2C(=O)N[C@H]3C(=O)N[C@H](C(=O)N[C@H](C(=O)O)c4cc(O)cc(O)c4-c4cc3ccc4O)[C@H](O)c3ccc(c(Cl)c3)Oc3cc2cc(c3O[C@@H]2O[C@H](CO)[C@@H](O)[C@H](O)[C@H]2O[C@H]2C[C@](C)(N)[C@H](O)[C@H](C)O2)Oc2ccc(cc2Cl)[C@H]1O — result for “time to complete release”: 12 h (poloxamer 407 hydrogel; pH 7.4, 37 °C, single agent loaded).
N[C@@H](Cc1ccc(O)c(O)c1)C(=O)O — result for “time to OFF without dyskinesia”: roughly 145 min (actiwatch activity; MPTP-lesioned marmoset, dyskinetic; 20 mg/kg).
CC1(C)C(/C=C/C=C/C=C/C=C2\N(CCCCS(=O)(=O)O)c3ccc4ccccc4c3C2(C)C)=[N+](CCCCS(=O)(=O)[O-])c2ccc3ccccc3c21: “time to fluorescence decrease onset” 2 days (solution; 66 µM, 4 °C, dark, 800 nm).
